Measured values gathered from unrelated publications.
Protocols differ between the studies behind these lines. Numbers after ± are the reported error.
Sequence of UniProt P53350 (whole entry, looked up): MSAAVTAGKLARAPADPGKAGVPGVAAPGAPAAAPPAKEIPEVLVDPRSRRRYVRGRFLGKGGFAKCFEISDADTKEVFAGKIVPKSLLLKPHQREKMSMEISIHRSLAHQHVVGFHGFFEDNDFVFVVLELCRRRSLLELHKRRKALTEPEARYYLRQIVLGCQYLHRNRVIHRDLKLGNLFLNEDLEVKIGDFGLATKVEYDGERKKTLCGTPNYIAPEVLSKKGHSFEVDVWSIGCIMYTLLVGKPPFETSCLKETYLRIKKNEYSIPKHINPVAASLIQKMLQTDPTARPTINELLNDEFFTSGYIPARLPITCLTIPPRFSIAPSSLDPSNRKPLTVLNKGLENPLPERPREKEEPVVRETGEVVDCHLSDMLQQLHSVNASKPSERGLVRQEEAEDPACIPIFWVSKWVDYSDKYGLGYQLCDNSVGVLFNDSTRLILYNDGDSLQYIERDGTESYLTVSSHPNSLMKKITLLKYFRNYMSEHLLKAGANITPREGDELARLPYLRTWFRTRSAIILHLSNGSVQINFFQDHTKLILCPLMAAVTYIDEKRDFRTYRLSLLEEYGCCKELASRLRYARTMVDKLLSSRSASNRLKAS
Sequence of UniProt O66465 (whole entry, looked up): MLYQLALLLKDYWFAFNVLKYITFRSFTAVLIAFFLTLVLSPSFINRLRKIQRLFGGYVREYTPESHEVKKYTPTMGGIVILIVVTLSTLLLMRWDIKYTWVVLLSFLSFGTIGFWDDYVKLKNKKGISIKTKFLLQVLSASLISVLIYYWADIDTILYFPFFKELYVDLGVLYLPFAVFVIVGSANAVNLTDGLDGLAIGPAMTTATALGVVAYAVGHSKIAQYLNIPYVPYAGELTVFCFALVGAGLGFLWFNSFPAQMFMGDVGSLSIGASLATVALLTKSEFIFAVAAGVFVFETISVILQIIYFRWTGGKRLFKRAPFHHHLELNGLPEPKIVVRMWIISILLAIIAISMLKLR
Sequence of UniProt Q39204 (whole entry, looked up): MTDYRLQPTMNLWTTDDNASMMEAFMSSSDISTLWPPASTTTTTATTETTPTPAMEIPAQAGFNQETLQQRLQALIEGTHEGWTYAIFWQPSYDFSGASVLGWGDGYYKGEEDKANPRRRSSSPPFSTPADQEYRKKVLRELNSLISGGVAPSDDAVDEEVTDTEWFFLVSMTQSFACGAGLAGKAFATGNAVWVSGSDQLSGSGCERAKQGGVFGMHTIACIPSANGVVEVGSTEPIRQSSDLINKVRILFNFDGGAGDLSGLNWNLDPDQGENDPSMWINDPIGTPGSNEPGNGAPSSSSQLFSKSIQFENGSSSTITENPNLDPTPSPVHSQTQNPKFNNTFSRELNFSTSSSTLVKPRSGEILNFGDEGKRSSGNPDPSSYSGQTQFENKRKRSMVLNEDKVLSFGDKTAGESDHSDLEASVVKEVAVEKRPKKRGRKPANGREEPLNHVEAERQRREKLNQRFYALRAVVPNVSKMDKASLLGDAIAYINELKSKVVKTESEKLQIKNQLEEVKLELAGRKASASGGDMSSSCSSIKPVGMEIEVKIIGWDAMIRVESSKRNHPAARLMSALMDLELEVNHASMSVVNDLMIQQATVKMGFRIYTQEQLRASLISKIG
Sequence of UniProt Q05097 (whole entry, looked up): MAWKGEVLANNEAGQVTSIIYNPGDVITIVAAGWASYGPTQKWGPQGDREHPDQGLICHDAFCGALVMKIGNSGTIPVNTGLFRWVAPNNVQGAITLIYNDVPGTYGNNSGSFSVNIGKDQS
Sequence of UniProt Q07741 (whole entry, looked up): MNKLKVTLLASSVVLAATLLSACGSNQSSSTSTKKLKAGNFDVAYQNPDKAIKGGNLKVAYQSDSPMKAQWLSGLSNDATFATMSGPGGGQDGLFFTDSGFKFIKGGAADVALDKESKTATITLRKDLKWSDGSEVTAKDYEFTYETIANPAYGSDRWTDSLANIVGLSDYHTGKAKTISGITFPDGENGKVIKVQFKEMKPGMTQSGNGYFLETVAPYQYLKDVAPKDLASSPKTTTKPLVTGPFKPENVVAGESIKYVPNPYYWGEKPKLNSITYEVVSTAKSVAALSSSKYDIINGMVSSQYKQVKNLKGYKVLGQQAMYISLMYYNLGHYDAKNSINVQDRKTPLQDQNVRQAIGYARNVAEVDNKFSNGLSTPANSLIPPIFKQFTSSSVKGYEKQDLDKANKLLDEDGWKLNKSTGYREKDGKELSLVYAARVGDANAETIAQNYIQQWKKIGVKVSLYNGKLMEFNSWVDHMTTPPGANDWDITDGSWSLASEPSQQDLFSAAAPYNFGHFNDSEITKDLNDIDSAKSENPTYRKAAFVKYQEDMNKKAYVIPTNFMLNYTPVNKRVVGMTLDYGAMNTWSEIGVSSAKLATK
Sequence of UniProt A0A2U7XUH7 (whole entry, unmodified, looked up): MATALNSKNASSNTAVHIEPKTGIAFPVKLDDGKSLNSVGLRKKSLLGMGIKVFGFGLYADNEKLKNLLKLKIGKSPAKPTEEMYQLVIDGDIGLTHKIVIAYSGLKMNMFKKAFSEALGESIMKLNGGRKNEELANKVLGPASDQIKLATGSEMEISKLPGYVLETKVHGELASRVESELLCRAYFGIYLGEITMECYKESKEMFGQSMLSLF
Sequence of UniProt Q14145 (whole entry, looked up): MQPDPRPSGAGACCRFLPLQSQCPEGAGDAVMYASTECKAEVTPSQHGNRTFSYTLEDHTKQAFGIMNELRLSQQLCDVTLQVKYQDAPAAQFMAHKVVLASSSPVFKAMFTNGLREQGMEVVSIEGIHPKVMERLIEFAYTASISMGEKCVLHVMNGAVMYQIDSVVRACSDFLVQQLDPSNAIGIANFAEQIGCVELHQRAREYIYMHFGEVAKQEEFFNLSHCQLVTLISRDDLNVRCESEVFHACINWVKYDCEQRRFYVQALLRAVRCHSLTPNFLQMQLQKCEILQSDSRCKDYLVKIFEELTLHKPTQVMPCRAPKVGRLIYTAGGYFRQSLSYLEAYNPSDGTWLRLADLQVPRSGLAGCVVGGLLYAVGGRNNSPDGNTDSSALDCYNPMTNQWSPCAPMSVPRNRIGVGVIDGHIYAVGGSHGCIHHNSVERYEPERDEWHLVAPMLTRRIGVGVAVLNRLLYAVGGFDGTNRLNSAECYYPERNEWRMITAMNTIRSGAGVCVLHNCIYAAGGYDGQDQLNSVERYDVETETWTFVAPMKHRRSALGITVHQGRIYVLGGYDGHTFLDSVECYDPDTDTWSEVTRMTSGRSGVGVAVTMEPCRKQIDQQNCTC
Sequence of UniProt O35082 (whole entry, looked up): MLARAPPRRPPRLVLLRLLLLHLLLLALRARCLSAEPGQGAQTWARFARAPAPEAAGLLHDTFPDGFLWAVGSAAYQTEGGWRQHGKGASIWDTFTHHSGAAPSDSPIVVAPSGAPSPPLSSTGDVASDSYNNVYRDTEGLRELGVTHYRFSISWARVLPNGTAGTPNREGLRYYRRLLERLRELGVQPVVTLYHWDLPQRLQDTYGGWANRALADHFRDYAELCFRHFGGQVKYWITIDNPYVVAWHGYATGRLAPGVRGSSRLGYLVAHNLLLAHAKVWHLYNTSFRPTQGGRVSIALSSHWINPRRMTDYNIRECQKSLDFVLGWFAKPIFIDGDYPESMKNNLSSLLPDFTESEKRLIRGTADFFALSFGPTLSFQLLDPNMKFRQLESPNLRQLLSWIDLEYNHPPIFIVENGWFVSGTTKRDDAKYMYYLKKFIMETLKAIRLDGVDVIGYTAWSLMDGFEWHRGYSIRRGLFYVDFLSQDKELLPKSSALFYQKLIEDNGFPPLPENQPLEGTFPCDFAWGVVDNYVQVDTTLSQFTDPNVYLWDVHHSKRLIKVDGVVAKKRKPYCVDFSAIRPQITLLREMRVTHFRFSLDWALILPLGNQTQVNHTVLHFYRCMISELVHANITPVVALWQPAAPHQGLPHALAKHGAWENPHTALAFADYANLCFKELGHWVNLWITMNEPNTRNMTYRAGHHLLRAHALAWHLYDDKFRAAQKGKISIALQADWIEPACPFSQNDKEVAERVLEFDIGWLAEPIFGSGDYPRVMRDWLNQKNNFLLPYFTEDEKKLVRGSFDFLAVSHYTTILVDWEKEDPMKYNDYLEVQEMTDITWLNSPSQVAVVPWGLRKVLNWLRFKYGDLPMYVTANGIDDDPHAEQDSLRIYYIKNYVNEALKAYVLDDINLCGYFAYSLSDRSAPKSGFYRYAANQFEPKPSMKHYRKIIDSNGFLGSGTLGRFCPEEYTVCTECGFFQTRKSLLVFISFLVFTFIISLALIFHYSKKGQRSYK
Sequence of UniProt P63104 (whole entry, looked up): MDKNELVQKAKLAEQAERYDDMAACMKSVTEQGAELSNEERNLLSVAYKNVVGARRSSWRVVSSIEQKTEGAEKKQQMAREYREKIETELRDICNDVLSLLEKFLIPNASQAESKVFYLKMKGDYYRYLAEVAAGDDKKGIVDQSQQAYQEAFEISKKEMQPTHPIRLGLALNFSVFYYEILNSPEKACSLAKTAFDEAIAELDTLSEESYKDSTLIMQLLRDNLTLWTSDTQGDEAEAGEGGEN
Sequence of UniProt Q9NZC7 (whole entry, looked up): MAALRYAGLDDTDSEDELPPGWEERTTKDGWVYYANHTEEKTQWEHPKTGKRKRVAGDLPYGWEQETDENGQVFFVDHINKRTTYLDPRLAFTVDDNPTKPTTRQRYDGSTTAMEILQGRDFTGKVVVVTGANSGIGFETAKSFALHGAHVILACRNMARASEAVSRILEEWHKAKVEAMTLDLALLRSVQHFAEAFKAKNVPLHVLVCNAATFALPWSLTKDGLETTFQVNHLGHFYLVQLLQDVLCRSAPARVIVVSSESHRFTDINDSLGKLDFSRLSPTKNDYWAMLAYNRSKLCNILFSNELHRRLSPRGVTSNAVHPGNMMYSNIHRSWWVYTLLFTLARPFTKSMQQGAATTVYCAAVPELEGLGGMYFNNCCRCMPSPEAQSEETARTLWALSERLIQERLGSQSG

SMILES	target	test	system	conditions	Kd [nM]
CC[C@H](C)[C@H](NC(=O)[C@@H](NC(=O)[C@H](Cc1c[nH]c2ccccc12)NC(=O)[C@H](CCC(=O)O)NC(=O)[C@H](CO)NC(=S)Nc1ccc2c(c1)C(=O)OC21c2ccc(O)cc2Oc2cc(O)ccc21)C(C)C)C(=O)N[C@H](C(=O)N[C@H](C(=O)N1CCC[C@H]1C(=O)N[C@@H](Cc1ccccc1)C(=O)N[C@@H](CC(C)C)C(=O)N[C@H](C(=O)N[C@@H](CC(N)=O)C(=O)N[C@@H](C)C(=O)O)[C@@H](C)O)[C@@H](C)CC)C(C)C	Rgg transcriptional regulator (Streptococcus pneumoniae, UniProt A0A0E7KI02)	binder, fluorescence polarization	–	20 min, pH 7.4, 20 °C, fluorescein-labelled peptide	3400 ± 300
CC(=O)NC1C(O)OC(CO)C(OC2OC(CO)C(OC3OC(CO)C(O)C(O)C3O)C(O)C2O)C1O (stereo not drawn)	sly, domain 4 (Streptococcus suis, UniProt Q55996)	binding	–	–	342
CC(=O)NC(Cc1ccc(Br)c(Cl)c1)C(=O)N[C@@H](C)C(=O)N1CCC[C@H]1C(=O)N1CCC[C@H]1C(=O)N[C@@H](CCC(=O)O)C(=O)N[C@@H](Cc1c[nH]cn1)C(=O)N[C@@H](CO)C(=O)N[C@H](C(=O)N[C@@H](C)C(N)=O)[C@@H](C)OP(=O)(O)O (stereo partly drawn)	Serine/threonine-protein kinase PLK1, polo-box (PLK1, Homo sapiens, UniProt P53350)	binding, MST	–	–	3.11
CC(C)C[C@H](NC(=O)[C@H](CCCNC(=N)N)NC(=O)[C@H](CCC(=O)O)NC(=O)[C@H](CCCCN)NC(=O)[C@H](CCCNC(=N)N)NC(=O)[C@H](CCCCN)NC(=O)[C@]1(C)CCCC=CCCC[C@](C)(NC(=O)[C@H](CC(C)C)NC(=O)[C@H](CO)NC(=O)[C@H](C)NC(=O)[C@H](CCCCN)NC(=O)[C@H](CCCNC(=N)N)NC(=O)[C@H](C)NC(=O)[C@H](CCC(N)=O)NC(=O)[C@@H]2CCCN2C(=O)[C@@H](NC(=O)[C@H](CO)NC(=O)c2ccc3c(c2)C(=O)OC32c3ccc(N(C)C)cc3Oc3cc(N(C)C)ccc32)C(C)C)C(=O)N[C@@H](CCCNC(=N)N)C(=O)N[C@@H](Cc2ccccc2)C(=O)N[C@@H](CC(C)C)C(=O)N1)C(=O)O	Transcription factor MYC2 (MYC2, Arabidopsis thaliana, UniProt Q39204)	binding, fluorescence anisotropy	–	pH 8.0, MYC2 residues 55-259	730 ± 100
CC[C@@H]1C(=O)N(C)c2cnc(Nc3ccc(C(=O)NCCCC[C@H](NC(=O)[C@@H](NC(=O)[C@H](CO)NC(=O)[C@H](Cc4cncn4CCCCCCCCc4ccccc4)NC(=O)[C@H](CC(C)C)NC(=O)[C@@H]4CCCN4C(C)=O)[C@@H](C)CP(=O)(O)O)C(N)=O)cc3OC)nc2N1C1CCCC1	PLK1 (Homo sapiens, UniProt P53350)	binding	–	–	17
N=C(N)NCCC[C@H](NC(=O)[C@H](Cc1ccccc1)NC(=O)[C@@H]1CCCN1C(=O)[C@H](CO)NC(=O)[C@H](Cc1ccccc1)NC(=O)CNC(=O)[C@@H]1CCCN1C(=O)[C@@H]1CCCN1C(=O)[C@@H](N)CCCNC(=N)N)C(=O)N[C@@H](CCCCNS(=O)(=O)c1ccc(C2=c3cc4c5c(c3Oc3c2cc2c6c3CCCN6CCC2)CCC[N+]=5CCC4)c(S(=O)(=O)[O-])c1)C(=O)O	Oligopeptide-binding protein OppA (oppA, Lactococcus lactis subsp. lactis, UniProt Q07741)	binding, fluorescence anisotropy	–	pH 6.5, 45 °C, with: dye-labelled peptide	30000 ± 10000
C=CCOC(=O)NCCC[C@@H](NC(=O)[C@H](CCCNC(=N)N)NC(=O)[C@H](C)NC(=O)[C@H](CCCNC(=N)N)NC(=O)CNC(=O)[C@H](CCCNC(=N)N)NC(=O)[C@@H](NC(=O)[C@@H](NC(=O)CNC(=O)[C@H](CC(C)C)NC(=O)[C@@H]1CCCN1C(=O)[C@H](CC(=O)O)NC(=O)[C@H](CO)NC(=O)[C@H](C)NC(=O)CC1c2ccccc2-c2ccccc21)C(C)C)C(C)C)C(N)=O	Klotho (Kl, Mus musculus, UniProt O35082)	BLI competition binding	–	30 min, 30 °C, with: 100 nM mouse Klotho, immobilized Pep-10-Biotin	10 ± 6
Cc1cc(-c2ccc3ccccc3c2)nnc1NCCN1CCN(C)CC1	5-hydroxytryptamine receptor 2B (Mus musculus, UniProt Q02152)	Gq activation, antagonist, Schild analysis	mouse	with: serotonin	89
CC(=O)N[C@@H](CCCNC(=N)N)C(=O)N[C@H](C(=O)N1CCC[C@H]1C(=O)N[C@@H](COP(=O)(O)O)C(=O)N[C@@H](CC(C)C)C(=O)N1CCC[C@H]1C(=O)N[C@H](C(=O)N1CCC[C@H]1C(c1ccccc1)c1ccccc1)C(C)C)[C@@H](C)O	YWHAZ (Homo sapiens, UniProt P63104)	binding, ITC	–	–	2200
CC(C)C[C@H](NC(=O)[C@@H]1CCCN1C(=O)[C@H](CCCCN)NC(=O)C[C@@H]1O[C@@H](C)[C@@H](O)[C@@H](O)[C@@H]1O)C(=O)N[C@@H](CCCCNC(=O)[C@H](CC(C)C)NC(=O)[C@@H]1CCCN1C(=O)[C@H](CCCCN)NC(=O)c1ccc(O[C@@H]2O[C@H](CO)[C@H](O)[C@H](O)[C@H]2O)cc1)C(=O)N[C@@H](Cc1ccccc1)C(=O)N[C@@H](CS)C(N)=O	lecA (Pseudomonas aeruginosa, UniProt Q05097)	binding, ITC	–	pH 7.5	7800
CC(C)C[C@H](NC(=O)[C@H](CC(C)C)NC(=O)[C@H](CCCNC(=N)N)NC(=O)CNC(=O)[C@@H]1CCCN1C(=O)[C@H](CC(=O)O)NC(=O)[C@H](CCCNC(=N)N)NC(=O)[C@H](C)NC(=O)[C@H](CO)NC(=O)[C@H](CC(=O)O)NC(=O)[C@H](Cc1ccc(O)cc1)NC(=O)[C@H](CCCNC(=N)N)NC(=O)[C@H](CC(=O)O)NC(=O)[C@H](Cc1ccccc1)NC(=O)[C@@H](N)Cc1ccccc1)C(=O)O	Prothrombin (F2, Homo sapiens, UniProt P00734)	binding, double-filter binding	–	1 h, room temperature	170 ± 40
NCC1OC(OC(CO)C2CC(O)C(n3ccc(=O)[nH]c3=O)O2)C(O)C1O (stereo not drawn)	mraY (Aquifex aeolicus, UniProt O66465)	binding, ITC	–	–	283
O=c1c(Br)c2oc3c(CN(Cc4ccccn4)Cc4ccccn4)c(O)ccc3nc-2c2ccccc12	zinc ion	fluorescence titration	–	pH 7.0, 25 °C	< 0.001
CC(C)C[C@H](NC(=O)[C@@H](NC(=O)[C@@H](NC(=O)CN)[C@@H](C)O)C(C)C)C(=O)N1CCC[C@H]1C(=O)N[C@@H](C)C(=O)N[C@@H](C)C(=O)N1CCC[C@H]1C(=O)N[C@@H](Cc1ccc(O)cc1)C(=O)N[C@@H](CCCNC(=N)N)C(=O)N[C@@H](Cc1c[nH]cn1)C(=O)N[C@@H](CCCNC(=N)N)C(=O)N[C@@H](CC(N)=O)C(=O)NCC(=O)NCC(=O)NCC(=O)NCC(=O)NCC(=O)N[C@H](C(=O)N[C@H](C(=O)N[C@@H](CC(C)C)C(=O)N1CCC[C@H]1C(=O)N1CCC[C@H]1C(=O)N1CCC[C@H]1C(=O)N1CCC[C@H]1C(=O)N[C@@H](Cc1ccc(O)cc1)C(=O)N[C@@H](CCCNC(=N)N)C(=O)N[C@@H](Cc1c[nH]cn1)C(=O)N[C@@H](CCCNC(=N)N)C(=O)N[C@@H](CC(N)=O)C(=O)O)C(C)C)[C@@H](C)O	WW domain-containing oxidoreductase, WW1-WW2 tandem domains (WWOX, Homo sapiens, UniProt Q9NZC7)	ITC	tandem WW1-WW2 domain	pH 7.8, 20 °C, some values lower limits only	18000 ± 3300
O=C(/C=C/c1ccc(O)cc1)c1c(O)cc(O)cc1O	Chalcone isomerase-like protein 1 (CHIL1, Humulus lupulus, UniProt A0A2U7XUH7, V139F)	binding, differential scanning fluorimetry	–	–	7610
CC(=O)N[C@H]1CCCCn2cc3ccccc3c2SC[C@@H](C(N)=O)NC(=O)CNC(=O)[C@H](CCCNC(=N)N)NC(=O)CNC(=O)[C@H]([C@@H](C)O)NC(=O)[C@H](C)NC(=O)[C@H]([C@@H](C)O)NC(=O)[C@H](CCC(N)=O)NC1=O	KEAP1 (Homo sapiens, UniProt Q14145)	binding, BLI	–	–	4300
C[C@H](N)C(=O)N[C@@H](CCCNC(=N)N)C(=O)N[C@H](C(=O)N[C@@H](CCCC[N+](C)(C)C)C(=O)N[C@@H](CCC(N)=O)C(=O)N[C@H](C(=O)N[C@@H](C)C(=O)N[C@@H](CCCNC(=N)N)C(=O)N[C@@H](CCCCN)C(=O)N[C@@H](CO)C(=O)N[C@H](C(=O)NCC(=O)O)[C@@H](C)O)[C@@H](C)O)[C@@H](C)O	Protein partner of snf, PHD domain (Drosophila melanogaster, UniProt Q9VG78)	intrinsic tryptophan fluorescence	–	pH 7.5, 25 °C, PHD finger	1900
CCCCCCCC(=O)N[C@@H](CCCCNS(=O)(=O)c1cccc2c(N(C)C)cccc12)C(=O)N[C@H](C(=O)N[C@@H](CCN)C(=O)N[C@H]1CCNC(=O)[C@H]([C@@H](C)O)NC(=O)[C@H](CCN)NC(=O)[C@H](CCN)NC(=O)[C@H](CC(C)C)NC(=O)[C@@H](Cc2ccccc2)NC(=O)[C@H](CCN)NC1=O)[C@@H](C)O	lipopolysaccharide	binding, fluorescence titration	Escherichia coli	pH 7.0	500 ± 100

A few entries again:
SMILES	target	test	system	conditions	Kd [nM]
CC(=O)NC(Cc1ccc(Br)c(Cl)c1)C(=O)N[C@@H](C)C(=O)N1CCC[C@H]1C(=O)N1CCC[C@H]1C(=O)N[C@@H](CCC(=O)O)C(=O)N[C@@H](Cc1c[nH]cn1)C(=O)N[C@@H](CO)C(=O)N[C@H](C(=O)N[C@@H](C)C(N)=O)[C@@H](C)OP(=O)(O)O (stereo partly drawn)	Serine/threonine-protein kinase PLK1, polo-box (PLK1, Homo sapiens, UniProt P53350)	binding, MST	–	–	3.11
CC(C)C[C@H](NC(=O)[C@H](CCCNC(=N)N)NC(=O)[C@H](CCC(=O)O)NC(=O)[C@H](CCCCN)NC(=O)[C@H](CCCNC(=N)N)NC(=O)[C@H](CCCCN)NC(=O)[C@]1(C)CCCC=CCCC[C@](C)(NC(=O)[C@H](CC(C)C)NC(=O)[C@H](CO)NC(=O)[C@H](C)NC(=O)[C@H](CCCCN)NC(=O)[C@H](CCCNC(=N)N)NC(=O)[C@H](C)NC(=O)[C@H](CCC(N)=O)NC(=O)[C@@H]2CCCN2C(=O)[C@@H](NC(=O)[C@H](CO)NC(=O)c2ccc3c(c2)C(=O)OC32c3ccc(N(C)C)cc3Oc3cc(N(C)C)ccc32)C(C)C)C(=O)N[C@@H](CCCNC(=N)N)C(=O)N[C@@H](Cc2ccccc2)C(=O)N[C@@H](CC(C)C)C(=O)N1)C(=O)O	Transcription factor MYC2 (MYC2, Arabidopsis thaliana, UniProt Q39204)	binding, fluorescence anisotropy	–	pH 8.0, MYC2 residues 55-259	730 ± 100
